{"data": "Experimental data from different studies", "SLCO1B1": "Solute carrier organic anion transporter family member 1B1 (SLCO1B1, Homo sapiens, UniProt Q9Y6L6)", "CYP3A4 S18F": "Cytochrome P450 3A4 (CYP3A4, Homo sapiens, UniProt P08684, S18F)", "note": "± gives the spread as reported.", "sequence of UniProt Q9Y6L6 (whole entry, looked up)": "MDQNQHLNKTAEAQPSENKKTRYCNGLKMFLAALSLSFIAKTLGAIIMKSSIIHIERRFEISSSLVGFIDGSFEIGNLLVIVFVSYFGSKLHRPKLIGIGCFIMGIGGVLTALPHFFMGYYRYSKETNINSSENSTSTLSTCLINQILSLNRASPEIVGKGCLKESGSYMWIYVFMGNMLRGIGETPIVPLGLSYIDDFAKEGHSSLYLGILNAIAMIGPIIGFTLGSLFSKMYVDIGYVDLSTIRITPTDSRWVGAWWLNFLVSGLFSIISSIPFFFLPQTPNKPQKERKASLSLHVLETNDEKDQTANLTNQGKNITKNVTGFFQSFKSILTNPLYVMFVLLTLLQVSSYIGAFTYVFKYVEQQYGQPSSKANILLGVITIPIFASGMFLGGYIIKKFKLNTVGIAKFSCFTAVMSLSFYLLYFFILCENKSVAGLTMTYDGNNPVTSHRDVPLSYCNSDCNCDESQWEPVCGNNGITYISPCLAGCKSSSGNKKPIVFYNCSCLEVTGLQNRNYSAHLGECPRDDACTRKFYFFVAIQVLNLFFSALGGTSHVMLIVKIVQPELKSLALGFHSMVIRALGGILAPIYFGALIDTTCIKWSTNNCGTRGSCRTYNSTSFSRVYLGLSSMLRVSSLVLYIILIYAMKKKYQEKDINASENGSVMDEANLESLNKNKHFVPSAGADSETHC", "sequence of UniProt P08684 (whole entry, unmodified, looked up)": "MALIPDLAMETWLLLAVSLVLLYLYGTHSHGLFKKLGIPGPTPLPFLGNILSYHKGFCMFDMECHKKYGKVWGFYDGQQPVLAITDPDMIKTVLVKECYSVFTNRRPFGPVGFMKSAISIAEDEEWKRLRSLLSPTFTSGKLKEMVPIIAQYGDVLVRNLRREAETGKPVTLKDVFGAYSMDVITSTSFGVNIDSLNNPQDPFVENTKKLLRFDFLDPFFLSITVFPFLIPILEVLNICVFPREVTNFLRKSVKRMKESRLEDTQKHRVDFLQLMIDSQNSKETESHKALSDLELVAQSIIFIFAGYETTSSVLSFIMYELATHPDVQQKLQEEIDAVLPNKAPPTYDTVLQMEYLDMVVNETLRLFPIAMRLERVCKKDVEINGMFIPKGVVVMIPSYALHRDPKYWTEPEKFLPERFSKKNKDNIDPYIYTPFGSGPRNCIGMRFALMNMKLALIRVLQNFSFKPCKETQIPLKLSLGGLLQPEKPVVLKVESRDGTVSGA", "sequence of UniProt P13866 (whole entry, looked up)": "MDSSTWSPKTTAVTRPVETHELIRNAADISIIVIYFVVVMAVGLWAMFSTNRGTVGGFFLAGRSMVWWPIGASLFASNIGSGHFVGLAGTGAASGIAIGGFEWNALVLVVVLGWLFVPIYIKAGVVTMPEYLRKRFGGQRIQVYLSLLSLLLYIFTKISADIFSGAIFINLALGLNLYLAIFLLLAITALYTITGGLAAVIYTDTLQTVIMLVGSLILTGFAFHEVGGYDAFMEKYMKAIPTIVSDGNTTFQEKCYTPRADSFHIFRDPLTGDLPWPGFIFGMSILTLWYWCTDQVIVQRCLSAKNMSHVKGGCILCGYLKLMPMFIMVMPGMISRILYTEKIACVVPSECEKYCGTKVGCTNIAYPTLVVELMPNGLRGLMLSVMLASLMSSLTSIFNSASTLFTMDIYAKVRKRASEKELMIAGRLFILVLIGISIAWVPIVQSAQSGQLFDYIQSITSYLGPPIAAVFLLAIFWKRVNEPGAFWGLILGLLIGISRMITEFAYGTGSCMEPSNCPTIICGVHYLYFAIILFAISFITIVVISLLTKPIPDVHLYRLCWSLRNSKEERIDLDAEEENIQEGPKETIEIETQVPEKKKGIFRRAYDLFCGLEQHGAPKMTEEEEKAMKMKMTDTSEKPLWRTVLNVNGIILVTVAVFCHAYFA", "sequence of UniProt P20815 (whole entry, looked up)": "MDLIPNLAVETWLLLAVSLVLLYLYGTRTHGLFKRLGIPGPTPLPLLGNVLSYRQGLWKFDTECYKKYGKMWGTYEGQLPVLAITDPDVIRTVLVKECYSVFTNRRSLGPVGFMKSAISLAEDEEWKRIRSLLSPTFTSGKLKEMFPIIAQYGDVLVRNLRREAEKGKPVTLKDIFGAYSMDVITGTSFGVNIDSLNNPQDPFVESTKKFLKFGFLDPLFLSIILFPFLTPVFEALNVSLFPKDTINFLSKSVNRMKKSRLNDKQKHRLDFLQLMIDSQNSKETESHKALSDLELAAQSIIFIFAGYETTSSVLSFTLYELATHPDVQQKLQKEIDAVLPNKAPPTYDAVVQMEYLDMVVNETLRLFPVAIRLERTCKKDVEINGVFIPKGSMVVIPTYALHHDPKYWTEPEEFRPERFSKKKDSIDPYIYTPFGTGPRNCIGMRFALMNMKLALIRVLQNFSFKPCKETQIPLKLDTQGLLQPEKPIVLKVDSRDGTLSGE", "sequence of UniProt P11509 (whole entry, looked up)": "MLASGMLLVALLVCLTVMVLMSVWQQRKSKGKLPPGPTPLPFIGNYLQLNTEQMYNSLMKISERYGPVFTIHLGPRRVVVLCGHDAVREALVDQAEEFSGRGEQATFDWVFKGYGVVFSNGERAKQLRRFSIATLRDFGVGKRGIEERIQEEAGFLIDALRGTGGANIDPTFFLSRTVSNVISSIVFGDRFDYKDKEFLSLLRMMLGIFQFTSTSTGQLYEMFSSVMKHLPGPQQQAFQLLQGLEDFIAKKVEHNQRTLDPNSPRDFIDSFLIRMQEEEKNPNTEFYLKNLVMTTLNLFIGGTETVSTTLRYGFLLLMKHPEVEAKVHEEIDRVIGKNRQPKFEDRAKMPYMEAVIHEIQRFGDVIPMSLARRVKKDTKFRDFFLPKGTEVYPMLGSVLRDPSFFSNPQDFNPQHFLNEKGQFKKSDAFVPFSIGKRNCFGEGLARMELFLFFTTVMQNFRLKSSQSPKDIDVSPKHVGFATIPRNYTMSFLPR", "sequence of UniProt P02769 (whole entry, looked up)": "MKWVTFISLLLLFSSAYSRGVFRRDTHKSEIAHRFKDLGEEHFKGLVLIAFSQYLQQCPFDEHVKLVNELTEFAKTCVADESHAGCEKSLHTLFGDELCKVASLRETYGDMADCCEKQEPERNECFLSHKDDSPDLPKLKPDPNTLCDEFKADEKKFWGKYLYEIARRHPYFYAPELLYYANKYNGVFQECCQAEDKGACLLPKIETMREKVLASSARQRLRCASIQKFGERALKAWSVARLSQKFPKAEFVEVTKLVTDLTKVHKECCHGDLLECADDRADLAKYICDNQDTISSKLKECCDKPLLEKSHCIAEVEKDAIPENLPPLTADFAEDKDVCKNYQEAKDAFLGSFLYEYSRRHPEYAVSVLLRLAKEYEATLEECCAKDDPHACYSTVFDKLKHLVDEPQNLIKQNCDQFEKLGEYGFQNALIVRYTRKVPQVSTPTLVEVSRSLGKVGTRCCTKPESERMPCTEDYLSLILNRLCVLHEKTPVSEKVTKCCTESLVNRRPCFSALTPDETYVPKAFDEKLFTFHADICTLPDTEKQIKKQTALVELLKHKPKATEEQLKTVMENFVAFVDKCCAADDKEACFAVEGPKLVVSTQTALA"}
{"SMILES": "OC[C@H]1O[C@@H](Oc2cc3c(O[C@@H]4O[C@H](CO)[C@@H](O)[C@H](O)[C@H]4O)cc(O)cc3[o+]c2-c2ccc(O)c(O)c2)[C@H](O)[C@@H](O)[C@@H]1O", "tested on": "Sodium/glucose cotransporter 1 (SLC5A1, Homo sapiens, UniProt P13866)", "test system": "Caco-2 BBe1, SLC5A1 siRNA knockdown", "setting": "50 µM, 4 h", "how to read": "reference: scrambled siRNA over knockdown", "quantity": "transport rate reduction", "result": "6.45 fold"}
{"SMILES": "O=C(O)CCCC[C@@H]1SC[C@@H]2NC(=O)N[C@@H]21", "assay": "mitochondrial swelling", "test system": "BALB/cByJ female mouse liver mitochondria", "setting": "30 min, with: succinate + rotenone", "how to read": "reference: CaCl2 maximal swelling", "quantity": "EC20", "result": "> 400 µM"}
{"SMILES": "COc1cc2c(Oc3ccc4[nH]c(C)cc4c3F)ccnc2cc1OCC1(N)CC1", "tested on": "Cytochrome P450 3A5 (CYP3A5, Homo sapiens, UniProt P20815)", "assay": "substrate", "setting": "1 µM, 60 min, pH 7.4, 37 °C", "quantity": "intrinsic clearance", "result": "0.31 µL/min/pmol"}
{"SMILES": "C=CC(=O)N1CCC([C@@H]2CCNc3c(C(N)=O)c(-c4ccc(Oc5ccccc5)cc4)nn32)CC1", "tested on": "SLCO1B1", "assay": "transport, item: estradiol-17β-glucuronide uptake", "test system": "HEK293 transfected", "setting": "1 µM", "how to read": "reference: vehicle", "quantity": "remaining activity", "result": "87.9 ± 5.7%"}
{"SMILES": "NC(=O)N1c2ccccc2C=Cc2ccccc21", "tested on": "CYP3A4 S18F", "assay": "substrate", "test system": "nanodiscs with CPR", "setting": "three substrates bound", "quantity": "NADPH oxidation rate", "result": "56 nmol/nmol P450/min"}
{"SMILES": "Cc1coc2c1CC[C@@H](C)C2", "tested on": "Cytochrome P450 2A6 (CYP2A6, Homo sapiens, UniProt P11509)", "assay": "inactivator", "setting": "5 µM, 10 min, pH 7.4, no NADPH", "how to read": "reference: time zero", "quantity": "remaining activity", "result": "100%"}
{"SMILES": "C#CCN(C)Cc1ccccc1", "assay": "mitochondrial swelling", "test system": "BALB/cByJ female mouse liver mitochondria", "setting": "30 min, with: succinate + rotenone", "how to read": "reference: CaCl2 maximal swelling", "quantity": "EC20", "result": "> 400 µM"}
{"SMILES": "CN(C)Cc1cc(OCCC[18F])ccc1Sc1ccccc1N", "tested on": "SERT", "test system": "male Sprague Dawley rat, PCA-treated, hypothalamus", "setting": "intravenous, 60 min", "quantity": "tissue uptake", "result": "0.32 ± 0.05 %ID/g"}
{"SMILES": "COCCc1ccc(OCC(O)CNC(C)C)cc1 (centres unmarked)", "tested on": "Albumin (ALB, Bos taurus, UniProt P02769)", "assay": "ultrafiltration", "test system": "Bos taurus, albumin solution", "setting": "1 µg/mL, 60 min, with: atractylenolide III 0.1 µg/mL", "quantity": "unbound fraction", "result": 0.69}
{"SMILES": "CO[C@H]1/C=C/O[C@@]2(C)Oc3c(C)c(O)c4c(O)c(c(/C=N/N5CCN(C)CC5)c(O)c4c3C2=O)NC(=O)/C(C)=C\\C=C\\[C@H](C)[C@H](O)[C@@H](C)[C@@H](O)[C@@H](C)[C@H](OC(C)=O)[C@@H]1C", "tested on": "SLCO1B1", "assay": "inhibitor", "test system": "HEK293 expressing SLCO1B1", "setting": "10 and 25 µM, 30 min preincubation, with: [3H]estrone-3-sulfate", "quantity": "transport after preincubation", "result": "decreased"}
{"SMILES": "CC(=O)[C@H]1CC[C@H]2[C@@H]3CCC4=CC(=O)CC[C@]4(C)[C@H]3CC[C@]12C", "tested on": "CYP3A4 S18F", "assay": "substrate", "test system": "nanodiscs with CPR", "setting": "one substrate bound", "quantity": "NADPH oxidation rate", "result": "171 nmol/nmol P450/min"}
{"SMILES": "C#CCOc1ccc2ccc(=O)oc2c1", "tested on": "human CYP3A4", "assay": "enzyme inactivation, inactivator", "test system": "reconstituted system", "setting": "with: testosterone 6β-hydroxylation substrate", "quantity": "KI", "result": "25 µM"}
{"SMILES": "CC(=O)c1cc(C(=O)N[C@@H](C)Cn2ccc(-c3ccc(C#N)c(Cl)c3)n2)[nH]n1", "tested on": "SLCO1B1", "assay": "uptake, inhibitor", "test system": "HEK (transfected)", "setting": "1 h preincubation, with: pravastatin substrate", "quantity": "IC50", "result": "3 µM"}
{"SMILES": "COc1ccc2[nH]cc(CCNC(C)=O)c2c1", "tested on": "Abcg2 (mouse)", "test system": "FVB/N wild-type male mice", "setting": "oral, 10 mg/kg, 1 h", "quantity": "plasma concentration", "result": "16.5 ± 9.86 ng/mL"}
{"note": "Excerpt of the above:"}
{"SMILES": "C#CCOc1ccc2ccc(=O)oc2c1", "tested on": "human CYP3A4", "assay": "enzyme inactivation, inactivator", "test system": "reconstituted system", "setting": "with: testosterone 6β-hydroxylation substrate", "quantity": "KI", "result": "25 µM"}
{"SMILES": "CC(=O)c1cc(C(=O)N[C@@H](C)Cn2ccc(-c3ccc(C#N)c(Cl)c3)n2)[nH]n1", "tested on": "SLCO1B1", "assay": "uptake, inhibitor", "test system": "HEK (transfected)", "setting": "1 h preincubation, with: pravastatin substrate", "quantity": "IC50", "result": "3 µM"}
